# Published values collected from several papers.
# Each line is one published result; not all experiments were run side by side. ± gives the spread as reported.
# Target: Albumin (ALB, Homo sapiens, UniProt P02768)
Compound,assay,test system,setting,quantity,result
CC1(CC(F)(F)F)NC(=O)N(c2ccc(F)c(C(F)(F)F)c2)C1=O (centres unmarked),,,,unbound fraction,0.193
COc1cc(-c2[o+]c3cc(O)cc(O)c3cc2O[C@@H]2O[C@H](CO)[C@@H](O)[C@H](O)[C@H]2O)cc(OC)c1O,"binding, fluorescence quenching",,"pH 7, 20 °C, HSA 2 µM",Kd,85.99 ± 0.04 µM
CC1(C)NC(=O)N(c2ccc(F)c(C(F)(F)F)c2F)C1=O,,,,unbound fraction,0.422
Fc1ccc(N2CCNCC2COc2ccc3c(c2)OCO3)cc1 (centres unmarked),HPLC retention on immobilised albumin,human serum albumin column,,fraction unbound,~0.1
CCOc1ccc(-c2nc3ccc(-c4nc5ccc(N6CCN(C)CC6)cc5[nH]4)cc3[nH]2)cc1,"binding, fluorescence titration",PBS,1 h,Kd,10 ± 4 µM
O=C1CCC(N2Cc3cc(CNC(=O)C(F)(F)c4ccc(Cl)cc4)ccc3C2=O)C(=O)N1 (centres unmarked),equilibrium dialysis,human serum albumin 50 mg/mL,"6 h, 37 °C",fraction unbound,0.167
CN(C)CCc1c[nH]c2cccc(OC(=O)CCCC(=O)O)c12.Cl,"substrate, refers to: 4-hydroxytryptamine",human serum 4%,,time to complete conversion,≤ 30 min
N#Cc1ccc(N2CCN(Cc3ccc(COc4cccc5c4CN([C@H]4CCC(=O)NC4=O)C5=O)cc3)CC2)c(F)c1,equilibrium dialysis,human serum albumin 50 mg/mL,"6 h, 37 °C",fraction unbound,0.047
NC(=O)C(c1ccccc1)(c1ccc(F)cc1)c1ccc(OCCF)cc1 (centres unmarked),"binding, HPAC-MS",immobilized protein column,"20 µM, pH 7.4, added: ammonium acetate/isopropanol mobile phase",retention factor k',25
OC[C@H]1O[C@@H](Oc2cc3c(O)cc(O)cc3[o+]c2-c2cc(O)c(O)c(O)c2)[C@H](O)[C@@H](O)[C@@H]1O,"binding, visible absorption spectroscopy",,"pH 7, added: HSA 200 µM",Kd,1.64 ± 0.57 µM
O=C(O)C(F)(F)C(F)(F)C(F)(F)C(F)(F)C(F)(F)C(F)(F)C(F)(F)F,isothermal titration calorimetry,,"25 °C, low-affinity sites, two-site model",Kd,11.3 µM

# For quick reference, copied from above:
Compound,assay,test system,setting,quantity,result
N#Cc1ccc(N2CCN(Cc3ccc(COc4cccc5c4CN([C@H]4CCC(=O)NC4=O)C5=O)cc3)CC2)c(F)c1,equilibrium dialysis,human serum albumin 50 mg/mL,"6 h, 37 °C",fraction unbound,0.047
